Measured values from different studies.
Several values in a cell are separate wells, animals, samples, runs or records. ± gives the spread as reported.
Cell line: MDA-MB-231

Cc1ccc(CNC(=O)Cn2cc(CSc3nc4ccccc4[nH]3)nn2)cc1 — IC50 (cell viability, MTT): 4.11 µg/mL
C[C@@H]1CC[C@@H]([C@@](O)(CNCc2cccc3ccccc23)COCc2ccccc2)[C@H](OCc2ccccc2)C1 — IC50 (cell growth, inhibitor, MTT; 72 h): 2.59 µM
N#Cc1cc(F)c(-n2c(=O)cc(C(F)(F)F)[nH]c2=O)cc1Oc1ccccc1 — IC50: ~30 µM
Cc1c(Cc2ccccc2)c(=O)oc2c(C)c(OCC(=O)NN=Cc3ccco3)ccc12 — IC50 (MTT): 5.07 µg/mL
CN(C)c1ccc2cc(C(=O)NS(=O)(=O)c3ccccc3-c3ccccc3)oc2c1 — IC50 (cell proliferation; 144 h): > 20 µM
O=C1C(=O)N(CCn2ncc3c(=O)[nH]cnc32)c2ccccc21 — IC50 (cell growth, SRB; 72 h): 27.9 ± 12 µg/mL
CCOc1ccc2c(C)c(CC)c(=O)oc2c1C — IC50 (MTT): 189 µg/mL
COc1cc(C#N)c(Oc2ccccc2C)cc1-n1c(=O)cc(C2CC2)[nH]c1=O — IC50: ~30 µM
CC(=NNC(=O)COc1ccc2c(C)c(Cc3ccccc3)c(=O)oc2c1C)c1ccc(Br)cc1 — IC50 (MTT): 25.2 µg/mL
O=C1NCCc2[nH]c(-c3ccncc3)cc21 — IC50 (MTS; NCI60 panel): > 10 µM
COc1ccc(CNC[C@](O)(COCc2ccc(OC)cc2)[C@@H]2CC[C@@H](C)C[C@H]2OCc2ccc(OC)cc2)cc1 — IC50 (cell growth, inhibitor, MTT; 72 h): 1.65 µM
CCNC(=S)NNC(=O)COc1ccc2c(C)c(CC)c(=O)oc2c1C — IC50 (MTT): 125 µg/mL
C[C@@H]1CC[C@@H]([C@@](O)(CNCc2ccccc2)COCc2ccc(F)cc2)[C@H](OCc2ccc(F)cc2)C1 — IC50 (cell growth, inhibitor, MTT; 72 h): 2.71 µM
Nc1ncnc2c1ncn2CCN1C(=O)C(=O)c2ccccc21 — IC50 (cell growth, SRB; 72 h): 64.7 ± 3.78 µg/mL
C[C@@H]1CC[C@@H]([C@](C)(O)Cn2cnc3ccccc32)[C@H](OCc2ccccc2)C1 — IC50 (cell growth, inhibitor, MTT; 72 h): 16.7 µM
COc1cc(C#N)c(Oc2ccccc2C)cc1-n1c(=O)cc(S(=O)(=O)c2ccccc2)[nH]c1=O — IC50: ~27.5 µM
COc1ccc2c(c1)C(=O)C(=O)N2CCn1ncc2c(=O)[nH]cnc21 — IC50 (cell growth, SRB; 72 h): 16.4 ± 4.57 µg/mL
COc1cccc(CNC[C@@](C)(O)[C@@H]2CC[C@@H](C)C[C@H]2OCc2ccccc2)c1 — IC50 (cell growth, inhibitor, MTT; 72 h): 11.7 µM
CC(O)[C@@H]1CCCN1C(=O)[C@@H]1CCCN1C(=O)OC(C)(C)C (mixture of isomers) — IC50 (cell growth, sulforhodamine B): 6.88 µM and 8.7 µM and 7.5 µM
Cc1c(Cc2ccccc2)c(=O)oc2c(C)c(OCC(=O)NN=Cc3ccc([N+](=O)[O-])cc3)ccc12 — IC50 (cell viability, MTT): 24.2 µM
CNC(=O)c1cc(Oc2ccc(NC(=O)Nc3ccc(Cl)c(C(F)(F)F)c3)cc2)ccn1 — IC50 (cell growth, SRB; 72 h): 37.4 ± 8.14 µg/mL
CCc1c(C)c2ccc(OCc3nnc(S)n3N)c(C)c2oc1=O — IC50 (MTT): 76 µg/mL
C[C@@H]1CC[C@@H]([C@](C)(O)CNCc2ccccc2)[C@H](OCc2ccccc2)C1 — IC50 (cell growth, inhibitor, MTT; 72 h): 3.42 µM
COc1cc(C#N)c(Oc2ccccc2C)cc1-n1c(=O)cc(C(F)(F)C(F)(F)F)[nH]c1=O — IC50: ~26.7 µM
COc1ccc(CNC[C@](O)(COCc2ccc(F)cc2)[C@@H]2CC[C@@H](C)C[C@H]2OCc2ccc(F)cc2)cc1 — IC50 (cell growth, inhibitor, MTT; 72 h): 1.91 µM
COc1cc(C#N)c(Oc2ccccc2C)cc1-n1c(=O)cc(-c2ccccc2)[nH]c1=O — IC50: ~30 µM
C[C@@H]1CC[C@@H]([C@](C)(O)CNCc2cccc(F)c2)[C@H](OCc2ccccc2)C1 — IC50 (cell growth, inhibitor, MTT; 72 h): 9.94 µM
CC(=O)[C@@H]1CCCN1C(=O)[C@@H]1CCCN1C(=O)OC(C)(C)C — IC50 (cell growth, sulforhodamine B): 1.95 µM and 2.18 µM and 2.34 µM
COc1ccc2c(c1)NC(=O)CN2c1nc(C)nc2c1CCC2 — IC50 (cell growth, MTS): 0.001 to 0.004 µM
COc1cc(Cl)c(Oc2ccccc2C)cc1-n1c(=O)cc(C(F)(F)F)[nH]c1=O — IC50: ~25 µM
CCc1c(C)c2ccc(OCC(=O)NN=Cc3ccc([N+](=O)[O-])cc3)cc2oc1=O — IC50 (MTT): 9.66 µg/mL
COc1cc(C#N)c(Oc2ccccc2C)cc1-n1c(=O)cc(Br)[nH]c1=O — IC50: ~30 µM
C=CCOc1ccc2c(C)c(CC)c(=O)oc2c1C — IC50 (MTT): 156 µg/mL
